Measurements of several laboratories.
Each line is one published result; not all experiments were run side by side. Numbers after ± are the reported error.

| SMILES | cell line | read-out | technique | time | temperature | setting | CC50 |
| --- | --- | --- | --- | --- | --- | --- | --- |
| CCC[C@H](NC(=O)[C@H](CC(C)C)NC(=O)OCc1ccccc1)C(=O)C(=O)NCc1ccccn1 | MRC-5 | – | – | 5 days | – | – | > 50 µM |
| CC[C@H](C)[C@H](NC(=O)[C@H](CCC(=O)O)NC(=O)[C@H](CCC(=O)O)NC(=O)[C@H](CO)NC(=O)[C@H](CCCCN)NC(=O)[C@H](CCCCN)NC(=O)[C@H](CC(C)C)NC(=O)[C@H](CC(C)C)NC(=O)[C@H](CCC(=O)O)NC(=O)[C@H](CCC(=O)O)NC(=O)[C@H](C)NC(=O)[C@H](CCCCN)NC(=O)[C@H](CCCCN)NC(=O)[C@H](CC(C)C)NC(=O)[C@H](CCCCN)NC(=O)[C@H](CCC(=O)O)NC(=O)[C@H](CCC(=O)O)NC(=O)[C@H](C)NC(=O)[C@H](CCCCN)NC(=O)[C@H](CCCCN)NC(=O)[C@H](CC(C)C)NC(=O)[C@H](CC(N)=O)NC(=O)[C@H](CCC(=O)O)NC(=O)[C@H](CCC(=O)O)NC(=O)[C@@H](NC(=O)[C@H](CC(=O)O)NC(=O)[C@H](CC(C)C)NC(C)=O)C(C)C)C(=O)N[C@@H](CC(C)C)C(=O)N[C@@H](CCCCN)C(=O)N[C@@H](CCCCN)C(N)=O | B95a | – | MTT | 8 days | 37 °C | – | > 10 µM |
| O=C1C(Cc2ccc(C(F)(F)F)cc2)=CS(=O)(=O)c2ccccc21 | U-937 | – | MTT | 72 h | – | – | 5.91 µM |
| C1=[N+]2CCCC[N+]3=Cc4ccc5[n]4[Au-]23[n]2c1ccc2-c1nc2ccccc2nc1-5.F[P-](F)(F)(F)(F)F | ovarian cancer cell lines | – | – | – | – | NCI60 panel mean | 94 µM |
| COc1ccc(F)c2[nH]c(C(=O)N[C@@H](CC(C)C)C(=O)N[C@@H](C[C@@H]3CCNC3=O)C(=O)c3nc4ccccc4s3)cc12 | VeroE6 | – | WST-8 | 3 (unit not given) | – | – | > 100 µM |
| OC[C@H]1[C@@H](O)[C@@H](O)CN1Cc1ccccc1 | MRC-5 | – | MTS | 72 h | – | – | > 200 µM |
| CC[C@H](C)[C@H](NC(=O)[C@H](C)NC(=O)[C@H](CCC(=O)O)NC(C)=O)C(=O)N[C@H](C(=O)N[C@@H](CCCNC(=N)N)C(=O)NC1CCCC=CCCCC(C(=O)N[C@@H](CC(C)C)C(=O)N[C@@H](Cc2ccccc2)C(=O)N[C@H](C(=O)N[C@@H](Cc2c[nH]cn2)C(=O)N[C@@H](Cc2ccccc2)C(=O)N[C@@H](CCCNC(=N)N)C(=O)N[C@H](C(=O)NCC(N)=O)[C@@H](C)CC)[C@@H](C)CC)NC(=O)[C@H](CCC(N)=O)NC(=O)[C@H](CCC(N)=O)NC(=O)[C@H](CC(C)C)NC1=O)[C@@H](C)CC (some centres unmarked) | MT4 (mock-infected) | – | MTT | – | – | – | > 10 µM |
| O=C(Oc1ccc(CCCCCCCCC(=O)c2c(OC(=O)c3ccccc3)cccc2OC(=O)c2ccccc2)cc1OC(=O)c1ccccc1)c1ccccc1 | Vero E6/TMPRSS2 | – | MTT | – | – | – | > 40 µM |
| C=C1C(=O)O[C@@H]2[C@H]1CC[C@H](C)[C@@]1(O[Si](C)(C)C)C=CC(=O)[C@@]21C | BALB/c mouse splenocytes | – | propidium iodide flow cytometry | 48 h | – | 10% fetal calf serum | 1.5 µM |
| CCN(CC)CCCC(C)Nc1cc[n+]([Ru-]2[NH2+]CC[NH2+]2)c2cc(Cl)ccc12.Cc1ccc(C(C)C)cc1.F[P-](F)(F)(F)(F)F.F[P-](F)(F)(F)(F)F (centres unmarked) | SUP-T1 | cytotoxicity | PI flow cytometry | 20 h | – | – | 75 µM |
| CCCCCCCCCC1=CC(=O)c2ccccc2S1(=O)=O | U-937 | – | MTT | 72 h | – | – | 27.9 µM |
| Oc1ccc(CCCCCCCCC(O)c2c(O)cccc2O)cc1O (centres unmarked) | Vero E6/TMPRSS2 | – | MTT | – | – | – | > 40 µM |
| O=c1cc[s+]([O-])c2ccccc12 (single isomer, unassigned; (+)) | U-937 | – | MTT | 72 h | – | – | 852 µM |
| CC(C)C[C@@H]1NC(=O)[C@@H](Cc2c[nH]c3ccccc23)NC(=O)[C@H](CCCN)NC(=O)[C@@H](CO)NC(=O)[C@H](CCC(N)=O)NC(=O)[C@@H](CCC(=O)O)NC(=O)[C@H](CO)NC(=O)[C@@H](Cc2c[nH]c3ccccc23)NC1=O | NCI cell lines | cytotoxicity | – | – | – | – | > 40 µM |
| O=C(CCCCCCc1ccc(O)c(O)c1)c1c(O)cccc1O | Vero E6/TMPRSS2 | – | MTT | – | – | – | 41 µM |
| CCCCNCC(O)Cn1c2ccc(Cl)cc2c2cc(Cl)ccc21 (centres unmarked) | WI-38 | cell growth or viability | MTT | – | – | – | 7.93 µM |
| C=C1C(=O)OC2C1CCC(Cn1cc(-c3cc(C(F)(F)F)cc(C(F)(F)F)c3)nn1)=C1CCC(C)(O)C12 (centres unmarked) | M9-ENL1 | cell viability | MTT | 24 h | – | – | 2.2 ± 0.1 µM |
| C=CCCCC(NC(=O)[C@H](CCC(N)=O)NC(=O)[C@H](CCC(N)=O)NC(=O)[C@H](CC(C)C)NC(=O)C(CCCC=C)NC(=O)[C@H](CCCNC(=N)N)NC(=O)[C@@H](NC(=O)[C@@H](NC(=O)[C@H](C)NC(=O)[C@H](CCC(=O)O)NC(C)=O)[C@@H](C)CC)[C@@H](C)CC)C(=O)N[C@@H](CC(C)C)C(=O)N[C@@H](Cc1ccccc1)C(=O)N[C@H](C(=O)N[C@@H](Cc1c[nH]cn1)C(=O)N[C@@H](Cc1ccccc1)C(=O)N[C@@H](CCCNC(=N)N)C(=O)N[C@H](C(=O)NCC(N)=O)[C@@H](C)CC)[C@@H](C)CC (some centres unmarked) | MT4 (mock-infected) | – | MTT | – | – | – | > 10 µM |
| CC[C@H](C)[C@H](NC(C)=O)C(=O)N[C@@H](CO)C(=O)N[C@@H](CC(C)C)C(=O)N[C@@H](CCC(=O)O)C(=O)N[C@@H](CCCNC(=N)N)C(=O)N[C@@H](CC(C)C)C(=O)N[C@@H](CC(=O)O)C(=O)N[C@H](C(=O)N[C@@H](CCC(=O)O)C(=O)N[C@@H](CCC(=O)O)C(=O)N[C@@H](CC(N)=O)C(=O)N[C@@H](CC(C)C)C(=O)N[C@@H](CCCCN)C(=O)N[C@@H](CCCCN)C(=O)N[C@@H](C)C(=O)N[C@@H](CCC(=O)O)C(=O)N[C@@H](CCC(=O)O)C(=O)N[C@@H](CCCCN)C(=O)N[C@@H](CC(C)C)C(=O)N[C@@H](CCCCN)C(=O)N[C@@H](CCCCN)C(=O)N[C@@H](C)C(=O)N[C@@H](CCC(=O)O)C(=O)N[C@@H](CCC(=O)O)C(=O)N[C@@H](CC(C)C)C(=O)N[C@@H](CC(C)C)C(=O)N[C@@H](CCCCN)C(=O)N[C@@H](CCCCN)C(=O)N[C@@H](CO)C(=O)N[C@@H](CCC(=O)O)C(=O)N[C@@H](CCC(=O)O)C(=O)N[C@H](C(=O)N[C@@H](CC(C)C)C(=O)N[C@@H](CCCCN)C(=O)N[C@@H](CCCCN)C(N)=O)[C@@H](C)CC)C(C)C | B95a | – | MTT | 8 days | 37 °C | – | > 10 µM |
| C=C1C(=O)O[C@@H]2C[C@H](C)[C@@H]3C[C@H](O[Si](C)(C)C(C)C)[C@H](O[Si](C)(C)C(C)C)[C@@]3(C)C[C@H]12 | BALB/c mouse splenocytes | – | propidium iodide flow cytometry | 48 h | – | 10% fetal calf serum | 80.8 µM |
| COc1cccc2[nH]c(C(=O)N[C@@H](CC(C)C)C(=O)N[C@@H](C[C@@H]3CCNC3=O)C(=O)c3nc4ccccc4s3)cc12 | VeroE6 | – | WST-8 | 3 (unit not given) | – | – | > 100 µM |
| CC(C)C[C@H](NC(=O)OCc1ccccc1)C(=O)N[C@@H](CC1CCNC1=O)C(O)S(=O)(=O)O (some centres unmarked) | MRC-5 | – | – | 5 days | – | – | > 50 µM |
| CC(C)C[C@@H]1NC(=O)[C@@H](Cc2c[nH]c3ccccc23)NC(=O)[C@H](CCCCN)NC(=O)[C@@H](Cc2c[nH]cn2)NC(=O)[C@H](CO)NC(=O)[C@@H](Cc2c[nH]cn2)NC(=O)[C@H](CCCCN)NC(=O)[C@@H](Cc2c[nH]c3ccccc23)NC1=O | NCI cell lines | cytotoxicity | – | – | – | – | 7.8 µM |
| Clc1cc(Cl)cc(CCCN2CCCC3=CC4CC(CN5CCCCC45)C32)c1 (centres unmarked) | Vero E6 | – | – | – | – | – | 110 µM |
| CC(C)C[C@H](NC(=O)c1cc2c(F)ccc(F)c2[nH]1)C(=S)N[C@@H](C[C@@H]1CCNC1=O)C(=O)c1nc2cc(F)ccc2s1 | VeroE6 | – | WST-8 | 3 (unit not given) | – | – | 38 ± 1.1 µM |
| O=c1cc[s+]([O-])c2ccc(Cl)cc12 (racemic) | U-937 | – | MTT | 72 h | – | – | 81.9 µM |

A few entries again:
| SMILES | cell line | read-out | technique | time | temperature | setting | CC50 |
| --- | --- | --- | --- | --- | --- | --- | --- |
| CC(C)C[C@H](NC(=O)c1cc2c(F)ccc(F)c2[nH]1)C(=S)N[C@@H](C[C@@H]1CCNC1=O)C(=O)c1nc2cc(F)ccc2s1 | VeroE6 | – | WST-8 | 3 (unit not given) | – | – | 38 ± 1.1 µM |
| COc1ccc(F)c2[nH]c(C(=O)N[C@@H](CC(C)C)C(=O)N[C@@H](C[C@@H]3CCNC3=O)C(=O)c3nc4ccccc4s3)cc12 | VeroE6 | – | WST-8 | 3 (unit not given) | – | – | > 100 µM |
